Experimental data pooled from the literature.
± gives the spread as reported. Converted amounts (≈) assume the structure as drawn.
Organism: Pseudomonas aeruginosa

CCCCCCCCCC(=O)NCCCC[C@H](NC(=O)[C@H](CCCCN)NC(=O)[C@@H]1CSCC(=O)N[C@@H](CCCCN)C(=O)N[C@@H](CC(C)C)C(=O)N[C@@H](CCCCN)C(=O)NCCCC[C@@H]2NC(=O)[C@H](CCCCN)NC(=O)[C@H](CC(C)C)NC(=O)[C@H](CCCCN)NC(=O)CSC[C@H](NC(=O)[C@H](CC(C)C)NC(=O)[C@H](CC(C)C)NC(=O)[C@H](CCCCN)NC2=O)C(=O)N[C@@H](CC(C)C)C(=O)N[C@@H](CC(C)C)C(=O)N[C@@H](CC(C)C)C(=O)N1)C(N)=O
minimal biofilm inhibitory concentration (PAO1; 24 to 25 h): 128 µg/mL

C[C@H]1COc2c(N3CCN(C)CC3)c(F)cc3c(=O)c(C(=O)N[C@@H](CCCNC(=N)N)C(=O)N[C@@H](Cc4ccc(-c5ccccc5)cc4)C(=O)N[C@@H](CCCNC(=N)N)C(=O)N[C@@H](Cc4ccc(-c5ccccc5)cc4)C(=O)N[C@@H](CCCNC(=N)N)C(N)=O)cn1c23
selectivity index (ATCC 3197; reference: IC50 MDCK cells over MIC): 4.4

CC[C@H](C)[C@H](NC(=O)[C@H](CCCCN)NC(=O)[C@H](CCCCN)NC(=O)[C@H](CC(C)C)NC(=O)[C@H](CCCCN)NC(=O)[C@H](CCC(=O)O)NC(=O)[C@H](CCCCN)NC(=O)[C@@H](NC(=O)[C@H](CCCCN)NC(=O)[C@H](CC(N)=O)NC(=O)[C@H](CCCNC(=N)N)NC(=O)[C@H](Cc1ccccc1)NC(=O)[C@H](CCCCN)NC(=O)[C@H](CCCNC(=N)N)NC(=O)[C@H](CC(C)C)NC(=O)[C@H](CCCNC(=N)N)NC(=O)[C@H](CCCCN)NC(=O)[C@H](CCCNC(=N)N)NC(=O)[C@H](CC(C)C)NC(=O)[C@@H](N)CC(C)C)[C@@H](C)CC)C(=O)NCC(=O)N[C@@H](CCC(N)=O)C(=O)N[C@@H](CCCCN)C(=O)N[C@H](C(=O)N[C@@H](CCC(N)=O)C(=O)NCC(=O)N[C@@H](Cc1ccccc1)C(=O)N[C@H](C(=O)N1CCC[C@H]1C(=O)N[C@@H](CCCCN)C(=O)N[C@@H](CC(C)C)C(=O)N[C@H](C(=O)N1CCC[C@H]1C(=O)N[C@@H](CCCNC(=N)N)C(=O)N[C@H](C(=O)N[C@@H](CCC(=O)O)C(=O)N[C@@H](CO)C(=O)O)[C@@H](C)O)C(C)C)C(C)C)[C@@H](C)CC
lethal concentration (inhibition zone method; 374, LB 0.8% agar with 154 mM NaCl; overnight, 37 °C): 4.77 µM

CC[C@H](C)[C@H](NC(=O)[C@H](Cc1c[nH]cn1)NC(=O)[C@H](CCCCNC(=O)[C@@H](NC(=O)[C@H](CCCCN)NC(=O)[C@H](Cc1ccccc1)NC(=O)[C@H](CCCCNC(=O)[C@H](CC(C)C)NC(=O)[C@@H]1CCCN1C(=O)[C@H](CCCCN)NC(=O)C[C@@H]1O[C@@H](C)[C@@H](O)[C@@H](O)[C@@H]1O)NC(=O)[C@H](CC(C)C)NC(=O)[C@@H]1CCCN1C(=O)[C@H](CCCCN)NC(=O)C[C@@H]1O[C@@H](C)[C@@H](O)[C@@H](O)[C@@H]1O)[C@@H](C)CC)NC(=O)[C@@H](NC(=O)[C@H](CCCCN)NC(=O)[C@H](Cc1ccccc1)NC(=O)[C@H](CCCCNC(=O)[C@H](CC(C)C)NC(=O)[C@@H]1CCCN1C(=O)[C@H](CCCCN)NC(=O)C[C@@H]1O[C@@H](C)[C@@H](O)[C@@H](O)[C@@H]1O)NC(=O)[C@H](CC(C)C)NC(=O)[C@@H]1CCCN1C(=O)[C@H](CCCCN)NC(=O)C[C@@H]1O[C@@H](C)[C@@H](O)[C@@H](O)[C@@H]1O)[C@@H](C)CC)C(N)=O
MBIC (biofilm formation, WST-8 staining; PAO1; added: tobramycin 0.1 µM): 5 µM

CC[C@H](C)[C@H](NC(=O)[C@H](CCCNC(=N)N)NC(=O)[C@@H](NC(=O)[C@H](C)NC(=O)[C@@H](NC(=O)[C@@H](NC(=O)[C@H](CC(C)C)NC(=O)[C@H](CCCNC(=N)N)NC(=O)[C@@H](N)C(C)C)[C@@H](C)CC)C(C)C)C(C)C)C(=O)N[C@@H](Cc1c[nH]c2ccccc12)C(=O)N[C@@H](CCCNC(=N)N)C(=O)N[C@@H](CCCNC(=N)N)C(N)=O
survival (PAO1, Galleria mellonella larvae; proleg injection, 20 µg per larva, 24 h post infection, 37 °C, dosed 1 h after infection): 27 ± 11%

CC[C@H](C)[C@H](NC(=O)[C@H](CCCCN)NC(=O)[C@H](CCCCN)NC(=O)[C@H](CC(C)C)NC(=O)[C@H](CCCCN)NC(=O)[C@H](CCC(=O)O)NC(=O)[C@H](CCCCN)NC(=O)[C@@H](NC(=O)[C@H](CCCCN)NC(=O)[C@H](CC(N)=O)NC(=O)[C@H](CCCNC(=N)N)NC(=O)[C@H](Cc1ccccc1)NC(=O)[C@H](CCCCN)NC(=O)[C@H](CCCNC(=N)N)NC(=O)[C@H](CC(C)C)NC(=O)[C@H](CCCNC(=N)N)NC(=O)[C@H](CCCCN)NC(=O)[C@H](CCCNC(=N)N)NC(=O)[C@@H](N)CC(C)C)[C@@H](C)CC)C(=O)NCC(=O)N[C@@H](CCC(N)=O)C(=O)N[C@@H](CCCCN)C(=O)N[C@H](C(=O)N[C@@H](CCC(N)=O)C(=O)NCC(=O)N[C@@H](Cc1ccccc1)C(=O)N[C@H](C(=O)N1CCC[C@H]1C(=O)N[C@@H](CCCCN)C(=O)N[C@@H](CC(C)C)C(=O)O)C(C)C)[C@@H](C)CC
lethal concentration (inhibition zone; DH): 1.77 µM

CC[C@H](C)[C@H](NC(=O)CNC(=O)[C@H](CCSC)NC(=O)[C@H](CC(C)C)NC(=O)[C@H](CCCCN)NC(=O)[C@@H](N)CC(C)C)C(=O)N[C@H](C(=O)N[C@@H](CCCCN)C(=O)N[C@@H](CCCCN)C(=O)N[C@H](C(=O)N[C@@H](CC(C)C)C(=O)N[C@@H](CCCCN)C(=O)N[C@@H](C)C(=O)N[C@@H](CC(C)C)C(N)=O)C(C)C)C(C)C
fold activity increase (PA14; concentration not given; reference: MIC of template peptide over MIC): 4 fold

CCCC(=O)NCC(=O)N[C@@H](CC(C)C)C(=O)N[C@@H](CC(C)C)C(=O)N[C@@H](CCCCN)C(=O)N[C@@H](CCCNC(=N)N)C(=O)N[C@H](C(=O)N[C@@H](CCCCN)C(=O)N[C@H](C(=O)N[C@@H](CC(C)C)C(=O)N[C@@H](CC(C)C)C(=O)NCCCC[C@H](NC(=O)[C@H](CC(C)C)NC(=O)[C@H](CC(C)C)NC(=O)[C@@H](NC(=O)[C@H](CCCCN)NC(=O)[C@@H](NC(=O)[C@H](CCCNC(=N)N)NC(=O)[C@H](CCCCN)NC(=O)[C@H](CC(C)C)NC(=O)[C@H](CC(C)C)NC(=O)CNC(=O)CCC)[C@@H](C)CC)[C@@H](C)O)C(N)=O)[C@@H](C)O)[C@@H](C)CC
FIC index (checkerboard; ATCC 27853; added: rifampicin): 0.5

CC(C)C[C@@H]1NC(=O)[C@H](CC(C)C)NC(=O)[C@H](CCCCN)NC(=O)CSC[C@@H](C(=O)N[C@@H](CCCCN)C(N)=O)NC(=O)[C@H](CCCCN)NC(=O)[C@H](CC(C)C)NC(=O)[C@H](CCCCN)NC(=O)[C@@H]2CSCC(=O)N[C@@H](CCCCN)C(=O)N[C@@H](CC(C)C)C(=O)N[C@@H](CC(C)C)C(=O)N[C@@H](CCCCNC1=O)C(=O)N[C@@H](CCCCN)C(=O)N[C@@H](CC(C)C)C(=O)N[C@@H](CC(C)C)C(=O)N2
minimal biofilm inhibitory concentration (PAO1; 24 to 25 h): 32 µg/mL

C[C@@](O)(C(F)F)[C@H](NC(=O)c1ccc(C#CC#CC2CC2)cc1)C(=O)NO
MIC50 (agar dilution; MDR/XDR clinical isolates): 0.5 µg/mL (≈ 1.33 µM)

CC[C@@H](C)[C@@H](NC(=O)[C@@H](C)NC(=O)[C@@H](CCCCN)NC(=O)[C@@H](CC(C)C)NC(=O)[C@@H](C)NC(=O)[C@H](NC(=O)[C@@H](Cc1c[nH]cn1)NC(=O)[C@@H](CC(C)C)NC(=O)[C@H](NC(=O)[C@H](NC(=O)[C@@H](CCCCN)NC(=O)[C@@H](CCCCN)NC(=O)[C@@H](C)NC(=O)[C@@H](CO)NC(=O)[C@@H](CCCCN)NC(=O)[C@@H](Cc1ccccc1)NC(=O)[C@H](NC(=O)[C@@H](CCCCN)NC(=O)[C@@H](CC(C)C)NC(=O)[C@@H](Cc1ccccc1)NC(=O)[C@@H](CO)NC(=O)[C@@H](CCCCN)NC(=O)[C@@H](Cc1c[nH]c2ccccc12)NC(=O)[C@@H](CCCCN)NC(C)=O)[C@H](C)O)[C@H](C)O)C(C)C)[C@H](C)O)C(=O)N[C@H](CO)C(=O)N[C@H](CO)C(N)=O
MIC geometric mean (six isolates; 24 h, 37 °C): 4.1 µM (≈ 12.3 µg/mL)

CC[C@H](C)[C@H](NC(=O)[C@H](CCCCN)NC(=O)[C@H](CCCCN)NC(=O)[C@H](CC(C)C)NC(=O)[C@H](CCCCN)NC(=O)[C@H](CCC(=O)O)NC(=O)[C@H](CCCCN)NC(=O)[C@@H](NC(=O)[C@H](CCCCN)NC(=O)[C@H](CC(N)=O)NC(=O)[C@H](CCCNC(=N)N)NC(=O)[C@H](Cc1ccccc1)NC(=O)[C@H](CCCCN)NC(=O)[C@H](CCCNC(=N)N)NC(=O)[C@H](CC(C)C)NC(=O)[C@H](CCCNC(=N)N)NC(=O)[C@H](CCCCN)NC(=O)[C@H](CCCNC(=N)N)NC(=O)[C@H](CC(C)C)NC(=O)[C@@H](N)CCCNC(=N)N)[C@@H](C)CC)C(=O)NCC(=O)N[C@@H](CCC(N)=O)C(=O)N[C@@H](CCCCN)C(=O)N[C@H](C(=O)N[C@@H](CCC(N)=O)C(=O)NCC(=O)N[C@@H](Cc1ccccc1)C(=O)N[C@H](C(=O)N1CCC[C@H]1C(=O)N[C@@H](CCCCN)C(=O)N[C@@H](CC(C)C)C(=O)N[C@@H](CCC(N)=O)C(=O)N1CCC[C@H]1C(=O)N[C@@H](CO)C(=O)N[C@@H](CCCCN)C(=O)N[C@@H](CCC(N)=O)C(=O)N[C@@H](CO)C(=O)O)C(C)C)[C@@H](C)CC
lethal concentration (inhibition zone method; 11082603, LB 0.8% agar with 154 mM NaCl; overnight, 37 °C): 5.77 µM

CCCC(=O)NCC(=O)N[C@@H](CC(C)C)C(=O)N[C@@H](CC(C)C)C(=O)N[C@@H](CCCCN)C(=O)N[C@@H](CCCNC(=N)N)C(=O)N[C@H](C(=O)N[C@@H](CCCCN)C(=O)N[C@H](C(=O)N[C@@H](CC(C)C)C(=O)N[C@@H](CC(C)C)C(=O)NCCCC[C@H](NC(=O)[C@H](CC(C)C)NC(=O)[C@H](CC(C)C)NC(=O)[C@@H](NC(=O)[C@H](CCCCN)NC(=O)[C@@H](NC(=O)[C@H](CCCNC(=N)N)NC(=O)[C@H](CCCCN)NC(=O)[C@H](CC(C)C)NC(=O)[C@H](CC(C)C)NC(=O)CNC(=O)CCC)[C@@H](C)CC)[C@@H](C)O)C(=O)NCCCC[C@H](NC(=O)[C@H](CCCCNC(=O)[C@H](CC(C)C)NC(=O)[C@H](CC(C)C)NC(=O)[C@@H](NC(=O)[C@H](CCCCN)NC(=O)[C@@H](NC(=O)[C@H](CCCNC(=N)N)NC(=O)[C@H](CCCCN)NC(=O)[C@H](CC(C)C)NC(=O)[C@H](CC(C)C)NC(=O)CNC(=O)CCC)[C@@H](C)CC)[C@@H](C)O)NC(=O)[C@H](CC(C)C)NC(=O)[C@H](CC(C)C)NC(=O)[C@@H](NC(=O)[C@H](CCCCN)NC(=O)[C@@H](NC(=O)[C@H](CCCNC(=N)N)NC(=O)[C@H](CCCCN)NC(=O)[C@H](CC(C)C)NC(=O)[C@H](CC(C)C)NC(=O)CNC(=O)CCC)[C@@H](C)CC)[C@@H](C)O)C(N)=O)[C@@H](C)O)[C@@H](C)CC
FIC index (checkerboard; ATCC 27853; added: polymyxin B): 0.188

Some of these lines once more:
CC[C@H](C)[C@H](NC(=O)[C@H](CCCCN)NC(=O)[C@H](CCCCN)NC(=O)[C@H](CC(C)C)NC(=O)[C@H](CCCCN)NC(=O)[C@H](CCC(=O)O)NC(=O)[C@H](CCCCN)NC(=O)[C@@H](NC(=O)[C@H](CCCCN)NC(=O)[C@H](CC(N)=O)NC(=O)[C@H](CCCNC(=N)N)NC(=O)[C@H](Cc1ccccc1)NC(=O)[C@H](CCCCN)NC(=O)[C@H](CCCNC(=N)N)NC(=O)[C@H](CC(C)C)NC(=O)[C@H](CCCNC(=N)N)NC(=O)[C@H](CCCCN)NC(=O)[C@H](CCCNC(=N)N)NC(=O)[C@H](CC(C)C)NC(=O)[C@@H](N)CC(C)C)[C@@H](C)CC)C(=O)NCC(=O)N[C@@H](CCC(N)=O)C(=O)N[C@@H](CCCCN)C(=O)N[C@H](C(=O)N[C@@H](CCC(N)=O)C(=O)NCC(=O)N[C@@H](Cc1ccccc1)C(=O)N[C@H](C(=O)N1CCC[C@H]1C(=O)N[C@@H](CCCCN)C(=O)N[C@@H](CC(C)C)C(=O)N[C@H](C(=O)N1CCC[C@H]1C(=O)N[C@@H](CCCNC(=N)N)C(=O)N[C@H](C(=O)N[C@@H](CCC(=O)O)C(=O)N[C@@H](CO)C(=O)O)[C@@H](C)O)C(C)C)C(C)C)[C@@H](C)CC
lethal concentration (inhibition zone method; 374, LB 0.8% agar with 154 mM NaCl; overnight, 37 °C): 4.77 µM
